Experimental data pooled from the literature.
Each line is one published result; not all experiments were run side by side. “And” joins repeats or separate records; there may be more than shown. ± marks the error that the study gave. ≈ marks a conversion by molar mass, not a printed value.

Structure (SMILES) | cell line | assay | system | conditions | how to read | quantity | result
O=C(N[C@H](Cc1ccccc1)C(=O)N[C@H](Cc1ccccc1)C(=O)N[C@@H](Cc1ccc(OP(=O)(O)O)cc1)C(=O)O)OCC1c2ccccc2-c2ccccc21 | MCF-10A | Alamar Blue |  | 10 µM |  | cytotoxicity | not toxic
N=C(N)NCCC[C@H](NC(=O)CN)C(=O)N[C@@H](Cc1c[nH]c2ccccc12)C(=O)N[C@@H](CCCNC(=N)N)C(=O)N[C@@H](Cc1c[nH]c2ccccc12)C(=O)N[C@@H](Cc1c[nH]c2ccccc12)C(=O)N[C@@H](Cc1c[nH]c2ccccc12)C(=O)N[C@@H](CCCNC(=N)N)C(=O)N[C@@H](Cc1c[nH]c2ccccc12)C(=O)N[C@@H](CCCNC(=N)N)C(=O)N[C@@H](Cc1c[nH]c2ccccc12)C(N)=O | mouse red blood cells |  |  |  |  | minimal haemolytic concentration | 8 µM
Cc1ccc(OCC2CN(C)C2)cc1C(=O)N[C@H](C)c1cc(-c2cnn(C)c2)nc2ccccc12 | Vero E6 |  |  | 7.812 µM |  | viability | 95.5% and 93.6% and 96.4%
CN(C)CCCNC(=O)[C@@H]1NC(=O)[C@@H]2Cc3ccc(cc3)Oc3cc4cc(c3O)-c3ccc5c(c[nH]c5c3)C[C@@H](NC(=O)C(NC(=O)CCCCCN)c3ccc(O)cc3)C(=O)N[C@H](c3ccc(O)cc3)C(=O)N[C@H]4C(=O)N[C@@H](C(=O)N2C)c2ccc(cc2)Oc2cc1ccc2O (some centres unmarked) | human red blood cells |  | PBS | 1 µg/mL, 1 h, pH 7.4, 37 °C |  | hemolysis | 0.95% and 0%
CC(C)C[C@H](NC(=O)[C@H](CCCNC(=N)N)NC(=O)[C@H](Cc1c[nH]c2ccccc12)NC(=O)[C@H](CCCNC(=N)N)NC(=O)[C@H](Cc1c[nH]c2ccccc12)NC(=O)[C@H](Cc1c[nH]c2ccccc12)NC(=O)[C@H](Cc1c[nH]c2ccccc12)NC(=O)[C@H](CCCNC(=N)N)NC(=O)[C@H](Cc1c[nH]c2ccccc12)NC(=O)[C@@H](N)CCCNC(=N)N)C(N)=O | mouse red blood cells |  |  |  |  | minimal haemolytic concentration | 32 µM
Cc1ccc(OC[C@@H]2CCCN2C)cc1C(=O)N[C@H](C)c1cc(-c2cnn(C)c2)nc2ccccc12 | African green monkey cells |  |  | 250 µM |  | viability | 1.51%
O=C1C=CC(=O)c2c(O)ccc(O)c21 | MRC-5 | cytotoxicity, MTT |  | 48 h, 10% FBS |  | IC50 | 6.42 ± 0.05 µM
Cc1ccc(OC[C@@H]2CCN2C)cc1C(=O)N[C@H](C)c1cc(-c2cnn(C)c2)nc2ccccc12 | African green monkey cells |  |  | 15.62 µM |  | viability | 90.2%
CNC(=O)C[C@H](Cc1ccc(F)cc1)NC(=O)[C@@H](Cc1ccc(Cl)cc1Cl)NC(=O)[C@H](N)Cc1ccccc1[N+](=O)[O-] | Huh-7-ACE2 | CellTiter-Glo |  | 0.781 µM, 48 h, unit not given | reference: DMSO | viability | 0.874 and 0.938 and 0.965
CCn1cc(-c2cc([C@@H](C)NC(=O)c3cc(OCCN(C)C)ccc3C)c3ccccc3n2)c(C(F)(F)F)n1 | Vero E6 |  |  | 125 µM |  | viability | -0.192%
CC(C)[C@H](NC(=O)[C@H](CCCNC(=N)N)NC(=O)[C@H](Cc1c[nH]c2ccccc12)NC(=O)[C@H](CCCNC(=N)N)NC(=O)[C@H](Cc1c[nH]c2ccccc12)NC(=O)[C@H](Cc1c[nH]c2ccccc12)NC(=O)[C@H](Cc1c[nH]c2ccccc12)NC(=O)[C@H](CCCNC(=N)N)NC(=O)[C@H](Cc1c[nH]c2ccccc12)NC(=O)[C@@H](N)CCCNC(=N)N)C(N)=O | mouse red blood cells |  |  |  |  | minimal haemolytic concentration | 64 µM
C#Cc1ccc(N2CCOCC2)c(/C=N/NC(=O)CCl)c1 | MDA-MB-231 | cell growth or viability, ATP luminescence |  | 24 h |  | IC50 | 5.8 µM
O=c1n(CCNCCOS(=O)(=O)c2ccccc2)c(=O)n(S(=O)(=O)c2ccccc2)c(=O)n1S(=O)(=O)c1ccccc1 | HUVEC | cell growth or viability, MTT |  | 12.5 µg/mL, 48 h |  | viability | 38.9%
Cc1ccc(OCCN(C)C)cc1C(=O)N[C@H](C)c1cc(-c2cncs2)nc2ccccc12 | Vero E6 |  |  | 125 µM |  | viability | 0% and 1.73%
CNC(=O)CC1CN(C(=O)c2ccc(C(F)(F)F)cn2)CCN1C(=O)c1cccnn1 (centres unmarked) | Huh-7-ACE2 | CellTiter-Glo |  | 0.195 µM, 48 h, unit not given | reference: DMSO | viability | 1.07 and 1.12 and 1.19
NC(=O)c1cc(-c2ccoc2)ccc1OCCc1cccc(F)c1 | HepG2 |  |  | 3 (unit not given) | reference: CC50 glucose over CC50 galactose | selectivity ratio | 1

Structure (SMILES) | cell line | assay | system | conditions | how to read | quantity | result
CC(C)[C@H](NC(=O)[C@H](CCCNC(=N)N)NC(=O)[C@H](Cc1c[nH]c2ccccc12)NC(=O)[C@H](CCCNC(=N)N)NC(=O)[C@H](Cc1c[nH]c2ccccc12)NC(=O)[C@H](Cc1c[nH]c2ccccc12)NC(=O)[C@H](Cc1c[nH]c2ccccc12)NC(=O)[C@H](CCCNC(=N)N)NC(=O)[C@H](Cc1c[nH]c2ccccc12)NC(=O)[C@H](CCCNC(=N)N)NC(=O)CN)C(N)=O | mouse red blood cells |  |  |  |  | minimal haemolytic concentration | 64 µM
C#CCNC(=O)[C@H]1NC(=O)[C@H]2NC(=O)[C@H](NC(=O)[C@@H]3NC(=O)[C@H](CC(N)=O)NC(=O)[C@H](NC(=O)[C@@H](CC(C)C)NC)[C@H](O)c4ccc(c(Cl)c4)Oc4cc3cc(c4O[C@@H]3O[C@H](CO)[C@@H](O)[C@H](O)[C@H]3O[C@H]3C[C@](C)(N)[C@H](O)[C@H](C)O3)Oc3ccc(cc3Cl)[C@H]2O)c2ccc(O)c(c2)-c2c(O)cc(O)cc21 | sheep erythrocytes |  |  | 512 µg/mL, 37 °C | reference: Triton X-100 | hemolysis | < 5%
CC(C)C[C@H](N)C(=O)N[C@@H](Cc1c[nH]c2ccccc12)C(=O)N[C@@H](CCCNC(=N)N)C(=O)N[C@@H](CCCNC(=N)N)C(=O)N[C@@H](Cc1c[nH]c2ccccc12)C(=O)N[C@@H](CCCNC(=N)N)C(=O)N[C@@H](Cc1c[nH]c2ccccc12)C(=O)N[C@@H](Cc1c[nH]c2ccccc12)C(=O)N[C@@H](Cc1c[nH]c2ccccc12)C(=O)O | HEK-293T cells | CCK-8 |  | 4 h, 37 °C, 10% cell death |  | lowest cytotoxic concentration | 128 µg/mL
CC[C@H](C)[C@H](NC(=O)[C@H](CCCNC(=N)N)NC(=O)[C@H](Cc1c[nH]c2ccccc12)NC(=O)[C@H](CCCNC(=N)N)NC(=O)[C@H](Cc1c[nH]c2ccccc12)NC(=O)[C@H](Cc1c[nH]c2ccccc12)NC(=O)[C@H](Cc1c[nH]c2ccccc12)NC(=O)[C@H](CCCNC(=N)N)NC(=O)[C@H](Cc1c[nH]c2ccccc12)NC(=O)[C@@H](N)CCCNC(=N)N)C(N)=O | mouse red blood cells |  |  |  |  | minimal haemolytic concentration | 32 µM
CCCCNC(=O)c1ccc2nc(CC)c(N(C)Cc3ccc(OC)cc3)n2c1 | bEnd.5 | sulforhodamine B |  | 100 µM, 72 h, serum-free medium |  | cytotoxicity | 10%
CCCCCC1=C(NCC)C(=O)C(C/C=C(\C)CCC=C(C)C)=C(O)C1=O | human peripheral lymphocytes |  |  | 40 µg/mL, 3 h, with S9, harvest 27 h |  | cytostasis | 20%
Cc1ccc(N2CCC3(CC2)CN(C)C3)cc1C(=O)N[C@H](C)c1cc(-c2cnn(C)c2)nc2ccccc12 | Vero E6 |  |  | 250 µM |  | viability | 1.25% and 1.07% and 0.893%
C[C@@H]1COCCN1c1nc(NCc2cccnc2C(F)(F)F)c2cccnc2n1 | THP-1 cells | cytotoxicity |  |  |  | IC50 | > 250 µM
O=C(C=Cc1ccc(O)c(O)c1)OC1CC(O)(C(=O)O)CC(OC(=O)C=Cc2ccc(O)c(O)c2)C1O (centres unmarked) | Vero E6 |  |  | 6.25 µM |  | cytotoxicity | 0%
CC(=O)N[C@@H](CCCCN)C(=O)N1CCC[C@H]1C(=O)N[C@H](C(=O)N[C@@H](Cc1ccccc1)C(=O)N[C@@H](CCC(N)=O)C(=O)N[C@@H](Cc1ccccc1)C(=O)N[C@@H](CC(C)C)C(=O)N[C@@H](Cc1ccccc1)C(=O)N[C@@H](Cc1c[nH]cn1)C(=O)N[C@@H](CCC(=O)O)C(N)=O)C(C)C | mouse red blood cells |  |  | 2500 µM, 1 h, 37 °C | reference: Triton X-100 | hemolysis | 0.2%
CNC(=O)C[C@H](Cc1ccncc1)NC(=O)[C@@H](Cc1cccc(Br)c1)NC(=O)[C@@H](N)Cc1ccsc1 | Huh-7-ACE2 | CellTiter-Glo |  | 0.391 µM, 48 h, unit not given | reference: DMSO | viability | 1.05 and 1.1
Cc1ccc(N2CC(N(C)C)C2)cc1C(=O)N[C@H](C)c1cc(-c2cnn(C)c2)nc2ccccc12 | Vero E6 |  |  | 250 µM |  | viability | 90.3% and 85.9% and 92.3%
CNC(=O)C[C@H](Cc1ccc(F)cc1)NC(=O)[C@@H](Cc1ccc(Cl)cc1Cl)NC(=O)[C@H](N)Cc1ccccc1C#N | Huh-7-ACE2 | CellTiter-Glo |  | 6.25 µM, 48 h, unit not given | reference: DMSO | viability | 0.936 and 0.91 and 0.838
O=C(O)c1cccc(CP(=O)(O)O)n1 | H4IIE | lysosome integrity, neutral red uptake |  | 24 h, without 10% FBS |  | EC50 | 200 ± 10 µg/mL (≈ 921 µM)
Cc1ccc(N2C[C@@H]3C[C@H]2CN3C)cc1C(=O)N[C@H](C)c1cc(-c2cnn(C)c2)nc2ccccc12 | African green monkey cells |  |  | 7.812 µM |  | viability | 94.8%
CNC(=O)C[C@H](Cc1ccccc1)NC(=O)[C@@H](Cc1ccc(Cl)cc1Cl)NC(=O)[C@H](N)Cc1ccccc1C#N | Huh-7-ACE2 | CellTiter-Glo |  | 0.000763 µM, 48 h, unit not given | reference: DMSO | viability | 0.999 and 0.96 and 1.03

For quick reference, copied from above:
Structure (SMILES) | cell line | assay | system | conditions | how to read | quantity | result
CNC(=O)CC1CN(C(=O)c2ccc(C(F)(F)F)cn2)CCN1C(=O)c1cccnn1 (centres unmarked) | Huh-7-ACE2 | CellTiter-Glo |  | 0.195 µM, 48 h, unit not given | reference: DMSO | viability | 1.07 and 1.12 and 1.19
NC(=O)c1cc(-c2ccoc2)ccc1OCCc1cccc(F)c1 | HepG2 |  |  | 3 (unit not given) | reference: CC50 glucose over CC50 galactose | selectivity ratio | 1
CC(C)[C@H](NC(=O)[C@H](CCCNC(=N)N)NC(=O)[C@H](Cc1c[nH]c2ccccc12)NC(=O)[C@H](CCCNC(=N)N)NC(=O)[C@H](Cc1c[nH]c2ccccc12)NC(=O)[C@H](Cc1c[nH]c2ccccc12)NC(=O)[C@H](Cc1c[nH]c2ccccc12)NC(=O)[C@H](CCCNC(=N)N)NC(=O)[C@H](Cc1c[nH]c2ccccc12)NC(=O)[C@H](CCCNC(=N)N)NC(=O)CN)C(N)=O | mouse red blood cells |  |  |  |  | minimal haemolytic concentration | 64 µM
